Experimental data pooled from the literature.
A part holds a random share of what one study measured.

Sample 1
Target: RING finger protein unkempt homolog, zinc fingers 1-6, SBP tag (UNK, Homo sapiens, UniProt Q9C0B0, residues 30-357)
Sequence of UniProt Q9C0B0 (30-357, looked up): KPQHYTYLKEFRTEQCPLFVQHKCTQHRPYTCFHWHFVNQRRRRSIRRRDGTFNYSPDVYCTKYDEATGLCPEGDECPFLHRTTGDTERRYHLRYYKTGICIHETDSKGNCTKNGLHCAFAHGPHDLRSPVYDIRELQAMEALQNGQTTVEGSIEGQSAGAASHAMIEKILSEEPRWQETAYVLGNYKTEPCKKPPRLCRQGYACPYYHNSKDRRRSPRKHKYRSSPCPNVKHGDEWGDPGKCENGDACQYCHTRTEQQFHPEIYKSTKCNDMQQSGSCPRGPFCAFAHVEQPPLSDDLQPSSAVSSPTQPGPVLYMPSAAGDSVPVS
Technique: RNA Bind-n-Seq
Molecule type: RNA
Sample: in vitro
Concentration: 100 nM
Setting: RNA with constant flanks, vertebrate orthologous sites, ends assumed
Baseline: input RNA pool
Direction: higher = stronger binding
`GGGAGUUCUACAGUCCGACGAUCCCCCCUGACCCUAAAGUAGUAGAUCUUUUUAAAAUUAUGUCACCACCACUUGUAAAAAUUUAGCAAUACCAGAAGAAAACGCUAAUGAAGUAAGAAAUUUUGCUCAUUGUUUUGCAAACCCAACAGAGGAUUGAGCAUCA` gave a bound/input enrichment of 2.26 ratio.
With `GGGAGUUCUACAGUCCGACGAUCGUGACUUUGGAAGUCCGCAGGGUGUCAUUGCAGAUACUUUUUAGCUCCAGGCCCGGUGGCUAGGUUGGUUCUCUCCUUUCCAAUCGGAGACCUCUGCCGCAAACAUGCUCCGCCAGAUCCCAACAGAGGAUUGAGCAUCA` the bound/input enrichment was 0.368 ratio.
For `GGGAGUUCUACAGUCCGACGAUCUAAUCACUUGUUUAAAGUUACGUAGAUAAGAAAUUAUAGCUGUUGAUCCUUGUUUUCCAAAAUGGCCUAUACUAUUUUUUUAUCCAUCUUGCAAAGAUCAGUUGUGUGUUAUUUCUUCACCAACAGAGGAUUGAGCAUCA`, the bound/input enrichment was 0.443 ratio.
`GGGAGUUCUACAGUCCGACGAUCUAAUGUGUUUUUAUUUACUGAAGAUCGUUUUGUGCCAAGAAUUGUGUUAGAUUUAAAAAUAAGAGGAUUAGUUCCUCUUUGUUGUGUUGAUUUCAUUGUUGAAAAUAAAUAGAACUUUGUCAACAGAGGAUUGAGCAUCA` has a bound/input enrichment of 0.643 ratio.

Sample 2
Target: Sal-like protein 4, full length isoform B (SALL4, Homo sapiens, UniProt Q9UJQ4-2, residues 1-616)
Technique: universal PBM
Molecule type: double-stranded DNA, one strand shown
Sample: in vitro
Concentration: not given
Setting: 8-mer, flanks averaged, mean of replicates
Direction: higher = stronger binding
For `GACCGCGC`, the E-score was -0.282.
For `AAATGTGT`, the E-score was 0.244.
`GATTGTGC` gave an E-score of -0.0869.
For `AGAGCCTG`, the E-score was -0.205.
The E-score of `GAGAGTAA` is reported as 0.0451.
For `CACGCGGG`, the E-score was -0.214.

Sample 3
Target: Histone acetyltransferase KAT6A, winged helix 1, GST fusion (KAT6A, Homo sapiens, UniProt Q92794, residues 1-85)
Technique: protein binding microarray
Molecule type: double-stranded DNA, one strand shown
Sample: in vitro
Concentration: not given
Setting: 8-mer, flanks averaged, mean of 2 arrays, mostly near background
Baseline: not given
Direction: higher = stronger binding
Target sequence (chain): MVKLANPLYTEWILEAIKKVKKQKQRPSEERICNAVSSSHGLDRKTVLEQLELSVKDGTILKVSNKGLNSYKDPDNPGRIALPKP
The E-score of `CCCGCCTC` is reported as 0.3.
For `CGGCGATA`, the E-score was 0.327.
With `CCATTCGA` the E-score was -0.143.
The E-score of `AATTAGAG` is reported as -0.129.
`CTGGTCGC` gave an E-score of 0.174.
The E-score of `GAGTTACC` is reported as -0.108.

Further values, each from its own experiment
For `PhoQ, residues 284 288 289 292 302 303 AMDMFI`, the fold induction was 1.24 (PhoP, residues 12 14 15 18 19 NHFRA (Escherichia coli, UniProt P23836); Sort-seq, item: YFP reporter; E. coli; PhoQ-PhoP variant library, added: 10 µM Mg2+; baseline: high Mg2+ state, higher = stronger signaling).

A few entries again (sample 3):
With `CCATTCGA` the E-score was -0.143.
The E-score of `AATTAGAG` is reported as -0.129.
